Experimental data of several laboratories.
Compare with care: the assays were run in different laboratories. ± marks the error that the study gave.

For `Cc1ccc(-c2nc(N)nc(N)c2-c2nc3ccccc3s2)cc1`, “maximum non-toxic concentration” read 110 µg/mL (Huh7.5; cytotoxicity; 72 h).
With `N#Cc1ccc(Nc2nc(N)cc(Oc3ccc(-c4cccc(F)c4)cc3)n2)cc1` the CC50 was 19.6 ± 10.2 µM (MT4 uninfected).
`CC(=O)C1=C(O)C(=O)N(c2ccc(Cl)cc2F)[C@@H]1C1CCCCC1` — result for viability: “no effect” (THP-1; Hoechst/PI staining; 10 µM, 5 h, with: 10 nM CCL2).
`CSc1c(-c2nc3ccccc3s2)c(N)n(NS(=O)(=O)c2ccc(C)cc2)c(=O)c1C#N`: “maximum non-toxic concentration” 100 µg/mL (Huh7.5; 72 h).
For `Cc1ccc(S(=O)(=O)Nc2nc(N)c(-c3nc4ccccc4s3)c(-c3ccc(Cl)cc3)n2)cc1`, “maximum non-toxic concentration” read 100 µg/mL (Huh7.5; cytotoxicity; 72 h).
The cytotoxicity of `Cc1cc(C(=O)NC(C)(C)COc2cccc3c2C(N)=NS(=O)(=O)N3)cc(C)n1` is reported as -5% (human peripheral blood lymphocytes; CBPI, concurrent micronucleus test; 1000 µg/mL, 4 h, with: rat liver S9; reference: vehicle control).
The cell viability of `COc1c(O[C@@H]2O[C@H](CO)[C@@H](O)[C@H](O)[C@H]2O)c(C)cc2c1C(=O)c1c(O)cccc1C2=O` is reported as 54.6 ± 7.46% (HK-2 co-cultured with HepaRG; MTT; 266.67 µM, 24 h; reference: untreated control).
With `N=C(N)c1ccc(OCCCCCOc2ccc(C(=N)N)cc2)cc1` the CC50 was over 20 µM (human primary fibroblasts; viability, MTS; 24 h).
The CC50 of `N#Cc1ccc(Nc2nc(N)cc(Oc3c(F)cc(-c4ccccc4F)cc3F)n2)cc1` is reported as 95.3 ± 52.9 µM (MT4 uninfected).
`COc1ccc2c(Cc3ccccc3F)c3[n+](cc2c1OC)CCc1cc2c(cc1-3)OCO2` has an IC50 of 30.5 µM (CHO-K1; cytotoxicity, CCK-8; 24 h).
`N#Cc1ccc(Nc2nc(N)cc(Oc3ccc(-c4ccccc4F)cc3F)n2)cc1` has a CC50 of 19.9 ± 7.82 µM (MT4 uninfected).
The viability of `Cc1cc(O)c2c(c1)C(=O)c1cccc(O)c1C2=O` is reported as 88.5 ± 10.9% (HK-2 co-cultured with HepaRG; MTT; 66.67 µM, 24 h; reference: untreated control).
`N#Cc1ccc(Nc2nc(N)cc(Oc3c(F)cc(-c4ccccc4C#N)cc3F)n2)cc1` gave a CC50 of over 256 µM (MT4 uninfected).
`COc1cc2c(c(O)c1OC)C(=O)c1c(cc(C)c(O)c1OC)C2=O` has a cell viability of 76.1 ± 6.06% (HK-2 co-cultured with HepaRG; MTT; 16.67 µM, 48 h; reference: untreated control).
With `N#Cc1ccc(Nc2nc(N)cc(Oc3ccc(-c4ccc(F)cc4)cc3F)n2)cc1` the CC50 was over 256 µM (MT4 uninfected).
For `Cc1ccc(-c2nc(NS(=O)(=O)c3ccccc3)nc(N)c2-c2nc3ccccc3s2)cc1`, “maximum non-toxic concentration” read 90 µg/mL (Huh7.5; cytotoxicity; 72 h).
The cell viability of `CC(=O)c1c(C)cc2cc(O)cc(O[C@@H]3O[C@H](CO)[C@@H](O)[C@H](O)[C@H]3O)c2c1O` is reported as 99.8 ± 4.17% (HK-2 co-cultured with HepaRG; MTT; 16.67 µM, 48 h; reference: untreated control).
For `CC(C)(c1ccc(O)cc1)c1ccc(O)cc1`, the viable cells was 53% (HepG2 spheroids, dissociated; annexin V-FITC/PI flow cytometry; 10 µM, 96 h).
For `CCCC(CCC)NC(=O)c1ccc2c(c1)OCO2`, “relative cell growth” read 107% (CHO-WBL; 5.0 mg/mL, 3 h, with rat liver S9; reference: vehicle control).
`N#Cc1ccc(Nc2nc(N)cc(Oc3c(F)cc(-c4ccc(C#N)c(F)c4)cc3F)n2)cc1` has a CC50 of 96.6 ± 38.1 µM (MT4 uninfected).
Under “maximum non-toxic concentration”, `Cc1ccc(S(=O)(=O)Nc2ncc(-c3nc4ccccc4s3)c(N)n2)cc1` is recorded as 110 µg/mL (Huh7.5; cytotoxicity; 72 h).
The viability of `COc1c(O)c(C)cc2c1C(=O)c1c(ccc(O)c1O)C2=O` is reported as 83.7 ± 13.5% (HK-2 co-cultured with HepaRG; MTT; 133.33 µM, 24 h; reference: untreated control).
`Cc1noc(C)c1Cn1cc(N2C(=O)CN(Cc3cccc(O)c3)C2=O)cn1` — result for “aberrant cells with gaps”: 2.5% (human blood lymphocytes; 823.8 µg/mL, 3 h, with 2% S9).
`C=CCNC1=C2C[C@@H](C)C[C@H](OC)[C@H](O)[C@@H](C)/C=C(\C)[C@H](OC(N)=O)[C@@H](OC)/C=C\C=C(/C)C(=O)NC(=CC1=O)C2=O` has an EC50 of over 60 µM (MYBPC3-mutant iPSC cardiomyocytes; cell viability; 24 h).
`COc1cc(O)c2c(c1)C(=O)c1cc(C)cc(O)c1C2=O` has a viability of 100 ± 15.5% (HK-2 co-cultured with HepaRG; MTT; 33.33 µM, 24 h; reference: untreated control).
`C/C(O)=C(\C#N)C(=O)Nc1ccc(C(F)(F)F)cc1` — result for “free drug concentration”: 780 nM (SIRC; culture medium; 3 µM, 48 h).
With `O=C(O)c1cc(O)c2c(c1)C(=O)c1cccc(O)c1C2=O` the viability was 46.5 ± 12.1% (HK-2 co-cultured with HepaRG; MTT; 266.67 µM, 24 h; reference: untreated control).
`c1csc(CNc2cc[nH]n2)c1`: “cells with structural aberrations” 1.5% (human peripheral blood lymphocytes, female; 1560 µg/mL, 4 h, without S9).
Under “maximum non-toxic concentration”, `Cc1ccc(C(=O)CNc2nc(NS(=O)(=O)c3ccccc3)ncc2-c2nc3ccccc3s2)cc1` is recorded as 100 µg/mL (Huh7.5; cytotoxicity; 72 h).
`N#Cc1ccc(Nc2nc(N)cc(Oc3ccc(-c4ccc(C#N)cc4)cc3C#N)n2)cc1` has a CC50 of over 45 µM (MT4 uninfected).
With `COC(=O)c1c(C)ncn1CC(c1c[nH]c2cc(Br)ccc12)c1c[nH]c2cc(Br)ccc12` the CC50 was over 20 µM (human primary fibroblasts; viability, MTS; 24 h).
`Cc1ccc(S(=O)(=O)Nn2c(N)c(C#N)cc(C#N)c2=O)cc1`: “maximum non-toxic concentration” 90 µg/mL (Huh7.5; 72 h).
`COc1cccc(-c2n[nH]c(SCc3ccccn3)n2)c1OC`: “binucleated cells with micronuclei” 1.3% (CHO-WBL; 31 µg/mL, 19 h, without S9).
For `CCOC(=O)c1cc(C#N)c(=O)n(NS(=O)(=O)c2ccc(C)cc2)c1N`, “maximum non-toxic concentration” read 90 µg/mL (Huh7.5; 72 h).
For `N#Cc1ccc(Nc2nc(N)cc(Oc3c(F)cc(-c4cccc(F)c4)cc3F)n2)cc1`, the CC50 was 20.7 ± 2.62 µM (MT4 uninfected).
`Cc1ccc(Cn2cc(C(=O)NN)c(=O)c3cc(Oc4ccccc4)ccc32)cc1` has an EC50 of over 64 µM (MRC-5; cytotoxicity).
`COc1ccc(-c2nc(N)nc(N)c2-c2nc3ccccc3s2)cc1` — result for “maximum non-toxic concentration”: 80 µg/mL (Huh7.5; cytotoxicity; 72 h).
The ALERT score of `CCCCc1oc2ccccc2c1C(=O)c1cc(I)c(OCCN(CC)CC)c(I)c1` is reported as 0 (H9 human embryonic stem cell aggregates; qRT-PCR; 3D aggregates; 0.5 µM, 5 days, developmental toxicity model; direction not given).
`Cc1cc(Nc2ccc(S(F)(F)(F)(F)F)cc2)n2nc(C(C)(F)F)nc2n1` — result for “free drug concentration”: 2400 nM (SIRC; culture medium; 20 µM, 48 h).
The viability of `COc1c(O)c(C)cc2c1C(=O)c1c(cc(O)c(O)c1O)C2=O` is reported as 87.1 ± 7.12% (HK-2 co-cultured with HepaRG; MTT; 66.67 µM, 24 h; reference: untreated control).
With `CC[C@H](C)[C@H](NC(=O)[C@H](CC(=O)O)NC(=O)[C@H](CCC(=O)O)NC(=O)[C@@H](N)CC(N)=O)C(=O)N[C@@H](CC(=O)O)C(=O)N[C@@H](CCC(N)=O)C(=O)N[C@@H](CCSC)C(=O)N[C@@H](Cc1ccccc1)C(=O)N[C@@H](CO)C(=O)N[C@H](C(=O)N[C@@H](CC(C)C)C(=O)N[C@@H](CC(C)C)C(=O)NCC(=O)N[C@@H](CCC(=O)O)C(=O)N[C@@H](CCSC)C(=O)N[C@@H](CC(=O)O)C(=O)N[C@@H](CC(C)C)C(=O)N[C@@H](CC(C)C)C(=O)N[C@H](C(=O)N[C@@H](CCC(N)=O)C(=O)N[C@@H](CO)C(=O)O)[C@@H](C)O)[C@@H](C)O` the uptake concentration was at least 5 µM (CHO; cell uptake, flow cytometry; 30 min, 37 °C).
`CCCCc1oc2ccc(NS(C)(=O)=O)cc2c1C(=O)c1ccc(OCCCN(CCCC)CCCC)cc1` gave an ALERT score of 0 (H9 human embryonic stem cell aggregates; qRT-PCR; 3D aggregates; 0.025 µM, 5 days, developmental toxicity model; direction not given).
For `N#Cc1cc(C#N)c(=O)n(NS(=O)(=O)c2ccccc2)c1N`, “maximum non-toxic concentration” read 90 µg/mL (Huh7.5; 72 h).
